Experimental data from different studies.
Each line is one published result; not all experiments were run side by side. Values joined by “and” are separate records of one study, mostly repeats; a detail may differ. ± marks the error that the study gave.
NMBR: Neuromedin-B receptor (NMBR, Homo sapiens, UniProt P28336)
SLC5A1: Sodium/glucose cotransporter 1 (SLC5A1, Homo sapiens, UniProt P13866)
KDR: Vascular endothelial growth factor receptor 2 (KDR, Homo sapiens, UniProt P35968)
CTSL: Procathepsin L (CTSL, Homo sapiens, UniProt P07711)
PDGFRB: Platelet-derived growth factor receptor beta (PDGFRB, Homo sapiens, UniProt P09619)

With `CCCc1nc2ccc(N(Cc3ccco3)C(=O)c3ccccc3)cc2c(=O)n1Cc1ccc(-c2ccccc2-c2nnn[nH]2)cc1` the Ki was 0.0437 µM (AGTR2 (Homo sapiens, UniProt P50052, F308A); ligand displacement, radioligand; cell membranes).
`CC[C@H](C)[C@H](NC(=O)[C@H](CC(C)C)NC(=O)[C@H](CCCNC(=N)N)NC(=O)c1ccc(CN2CCNCC2)cc1)C(=O)N[C@@H](Cc1ccccc1)C(N)=O` gave an IC50 of 12.9 µM (Cyclin-A2, with CDK2 (CCNA2, Homo sapiens, UniProt P20248); binding to cyclin groove, inhibitor, fluorescence polarization competition).
For `O=C(O)CC[C@H](NC(=O)N[C@@H](CCCCNC(=O)CCCCCCC(=O)NCCCCNC(=O)CN1CCN(CC(=O)O)CCN(CC(=O)O)CCN(CC(=O)O)CC1)C(=O)O)C(=O)O`, the IC50 was > 10 µM (Integrin alpha-V/beta-3 (Homo sapiens, UniProt P05106+P06756); ligand displacement in cells).
With `COc1ccc(-c2cc(C(F)(F)F)nc(NCc3ccccc3)n2)cc1OC` the EC50 was 4.4 ± 1.8 µM (Secretin receptor (SCTR, Homo sapiens, UniProt P47872); increase of tracer binding, TR-FRET; HEK293 membranes; together with: Fluo-Sec 6 nM).
`CC(C)[C@H](NC(=O)[C@H](C)NC(=O)[C@H](Cc1c[nH]c2ccccc12)NC(=O)[C@H](Cc1c[nH]cn1)NC(=O)[C@H](N)Cc1ccccc1)C(=O)N[C@H](C)C(=O)N[C@@H](Cc1c[nH]cn1)C(=O)N1CCC[C@@H]1CN[C@@H](Cc1ccccc1)C(N)=O` gave an IC50 of > 10 µM (NMBR; inositol phosphate generation, antagonist; NCI-H1299; together with: neuromedin B).
The IC50 of `CCCCC/C=C/C(=O)CCc1ccc(O)c(OC)c1` is reported as 0.658 µg/mL (mouse mAb 1-D6; antibody binding, indirect competitive ELISA).
`CN(Cc1cc(C2CC2)on1)C(=O)c1cccc(-c2ccc3c(c2)CCO3)c1` has an IC50 of 8.8 µM (Acetyl-CoA synthetase (Cryptococcus neoformans, UniProt J9VFT1)).
The IC50 of `O=C(Nc1ccc(Cl)c(-c2nc3ncccc3o2)c1)c1cccs1` is reported as 0.0083 ± 0.0009 µM (Nucleoside transporter 1 (Plasmodium vivax, UniProt A5K8B0); [3H]adenosine uptake; target-expressing yeast).
The IC50 of `CNC(=O)c1ccc(Oc2nc3c(c(=O)n(C)c(=O)n3C)n2CCC(C)C)cc1` is reported as 0.057 to 0.089 µM and 0.089 µM (ALDH1A1 (Homo sapiens, UniProt P00352)).
`NS(=O)(=O)Nc1ncnc(OCCOc2ncc(Br)cn2)c1-c1ccc(Br)cc1` gave a Vmax of 458 ± 25 pmol/min/mg (Eadie-Hofstee plot, item: compound formation; female Sprague-Dawley rat, liver microsomes; 1500 mg/kg daily, 4 weeks).
For `CCCC[C@H](NC(=O)CCCCCCCNC(=O)CN1CCN(CC(=O)O)CCN(CC(=O)O)CC1)C(=O)N[C@H]1CC(=O)NCCCC[C@@H](C(N)=O)NC(=O)[C@H](Cc2c[nH]c3ccccc23)NC(=O)[C@H](CCCNC(=N)N)NC(=O)[C@@H](Cc2ccccc2)NC(=O)[C@H](Cc2c[nH]cn2)NC1=O` [copper-64 labelled], the tissue uptake was 2.01 ± 0.6 %ID/g (C57 mice, blood; intravenous, 0.37 MBq, 0.5 h).
`Fc1ccc2[nH]ccc2c1-c1nc(N2CCOCC2)c2sc(CN3CCN(CC4CC4)CC3)cc2n1` has an IC50 of > 10 µM (PRKDC (Homo sapiens, UniProt P78527); enzyme activity, inhibitor).
`COc1ccc(-c2cc(C(F)(F)F)nc(S(=O)(=O)CCC(=O)Nc3ccc(C)cc3)n2)cc1` gave an IC50 of 0.9 µM (WRN (Homo sapiens, UniProt Q14191); enzyme activity, inhibitor).
With `O=c1c(O[C@@H]2O[C@H](CO[C@@H]3O[C@H](CO)[C@@H](O)[C@H](O)[C@H]3O)[C@@H](O)[C@H](O)[C@H]2O)c(-c2ccc(O)cc2)oc2cc(O)cc(O)c12` the IC50 was 76 µM (SLC5A1; transporter uptake, inhibitor).
The IC50 of `CN(C1COC1)C(C)(C)/C=C(\C#N)C(=O)N1CCC[C@H]1Cn1nc(-c2ccc(Oc3ccccc3)cc2F)c2c(N)ncnc21` is reported as 0.005 to 0.027 µM (BTK (Homo sapiens, UniProt Q06187); probe binding, AlphaScreen; Ramos; together with: biotinylated probe).
For `OC(c1ccccc1)(c1ccccc1)c1ccccc1C(F)(F)F`, the IC50 was 0.7 µM (KCNN4 (Homo sapiens, UniProt O15554); ion current, inhibitor, patch clamp).
`O=Cc1c(O)ccc2ccccc12`: mRNA level “decreased” (HUVEC; item: THBS1, CXCR4, CCL2; 75 µM, 24 h).
With `COc1cc2nccc(Oc3ccc(NC(=S)NCCN4CCOCC4)c(Cl)c3)c2cc1C(N)=O` the IC50 was 0.398 µM (KDR).
`CC(C)CCN(Cc1ccccn1)c1nc(C#N)nc(N2CCOCC2)n1` has an IC50 of 0.033 µM (CTSL; enzyme activity, inhibitor, fluorescence).
The IC50 of `CC[C@H](C)[C@@H]1NC(=O)[C@H](CCCNC(=N)N)NC(=O)[C@H](CCCNC(=N)N)NC(=O)[C@H](CC(C)C)NC(=O)[C@@H](NC(=O)[C@H](C)NC(=O)[C@H](C)NC(C)=O)CSCc2ccc3nc4cc(ccc4nc3c2)CSC[C@@H](C(=O)N[C@H](C(=O)N[C@@H](CC(N)=O)C(=O)N[C@@H](CC(C)C)C(=O)N[C@@H](CCCNC(=N)N)C(=O)N[C@@H](CCC(N)=O)C(=O)N[C@@H](CCCCN)C(=O)N[C@@H](CC(C)C)C(=O)N[C@@H](CC(C)C)C(=O)N[C@@H](CC(N)=O)C(N)=O)C(C)C)NC(=O)[C@H](CC(=O)O)NC(=O)CNC1=O` is reported as 0.111 µM (MCL1 (Homo sapiens, UniProt Q07820); ligand displacement, FP).
The Ki of `CCc1nc2ccc(N(Cc3ccccc3)C(=O)c3cccs3)cc2c(=O)n1Cc1ccc(-c2ccccc2-c2nn[nH]n2)cc1` is reported as 0.00316 µM (AGTR2 (Homo sapiens, UniProt P50052, W269F); ligand displacement, radioligand; cell membranes).
For `COc1cc2nccc(Oc3ccc(NC(=S)NCc4ccncc4)c(Cl)c3)c2cc1C(N)=O`, the IC50 was 0.0628 µM (PDGFRB).
The IC50 of `O=C(O)C1CCCNC1` (stereo not shown) is reported as 3580 µM (SLC6A6 (Homo sapiens, UniProt P31641); transporter uptake, inhibitor, radiometric).
`CCC(c1nnnn1Cc1cccs1)N1CCN(c2nc3cc(N)cc(F)c3s2)CC1` (stereo not shown) has an IC50 of 45 µM (Deoxyribonuclease-1 (DNASE1, Bos taurus, UniProt P00639); enzyme activity, inhibitor, fluorescence DNA degradation; pH 7.5, together with: FITC-labelled DNA substrate).
`NC1CCC(Nc2nccc(-c3cccnc3Oc3ccc(NS(=O)(=O)Cc4ccccc4Cl)c4ccccc34)n2)CC1` (stereo not shown) has an IC50 of 0.49 ± 0.02 µM (Serine/threonine-protein kinase/endoribonuclease IRE2, RNase domain (ERN2, Homo sapiens, UniProt Q76MJ5); RNase activity, inhibitor; together with: XBP1 mini-substrate).
The DC50 of `N#Cc1cccc(-c2ccc(=O)n(Cc3cccc(-c4ncc(OCC5CCN(CC(=O)N6CCN(CCNc7ccc8c(c7)C(=O)N(C7CCC(=O)NC7=O)C8=O)CC6)CC5)cn4)c3)n2)c1` (stereo not shown) is reported as 0.00083 ± 0.00016 µM (MET (Homo sapiens, UniProt P08581); degrader).
`CCCCCCCCCCCC(=O)NCCC(=O)N[C@H](CCCNC(=N)N)C(=O)N[C@H](CCCNC(=N)N)C(=O)N[C@H](CCCNC(=N)N)C(=O)N[C@H](CCCNC(=N)N)C(=O)N[C@H](CCCNC(=N)N)C(=O)N[C@H](CCCNC(=N)N)C(=O)N[C@H](CCCNC(=N)N)C(=O)N[C@H](CCCNC(=N)N)C(=O)N[C@H](CCCNC(=N)N)C(=O)N[C@@H](CCCCNC(=S)Nc1ccc2c(c1)C(=O)OC21c2ccc(O)cc2Oc2cc(O)ccc21)C(N)=O` gave a retained fluorescence of ~20% (Jurkat; flow cytometry; 10 µM, 48 h, loaded 10 min at 37 °C, then washed; baseline: 0 h, higher = more retained).
`COc1cc(CCC(C)=O)ccc1O` gave an IC50 of > 4 µg/mL (mAb 5-D8; antibody binding, indirect competitive ELISA; together with: coating antigen hapten 5-OVA).
With `O=c1c2ccccc2on1-c1ccccc1` the IC50 was > 10 µM (HDAC10 (Homo sapiens, UniProt Q969S8); enzyme activity, inhibitor).
`[64Cu+2].c1cnc(CNCc2ccc(CN3CCCN4CCNCCCN(CC4)CC3)cc2)nc1` gave a tissue uptake of 4.86 ± 0.52 %ID/g (CXCR4 (human); NOD/SCID mice, U87 xenografts, small intestine; 60 min post-injection).
`COc1cc2nccc(Oc3ccc(NC(=S)NCCc4ccccc4)c(Cl)c3)c2cc1C(N)=O` has an IC50 of 0.255 µM (KDR).
With `O=CCCC(=O)O` the IC50 was 267 µM (BBOX1 (Homo sapiens, UniProt O75936); enzyme activity, inhibitor).
`CSCC[C@H](NC(=O)[C@H](Cc1ccccc1)NC(=O)[C@H](Cc1c[nH]cn1)NC(=O)CNC(=O)[C@@H](NC(=O)[C@H](C)NC(=O)[C@H](Cc1c[nH]c2ccccc12)NC(=O)[C@H](CC(C)C)NC(=O)[C@@H]1CCC(=O)N1)[C@@H](C)O)C(N)=O` has an IC50 of < 0.001 µM (NMBR; NMBR activity, cell-based).
`COc1cc2nccc(Oc3ccc(NC(=S)N4CCC(F)(F)C4)c(Cl)c3)c2cc1C(N)=O` has an IC50 of 0.0796 µM (KDR).
`[64Cu+2].c1ccc(CNCc2ccc(CN3CCCN4CCNCCCN(CC4)CC3)cc2)nc1` has a tissue uptake of 2.7 ± 0.24 %ID/g (CXCR4; NOD/SCID mouse, U87 and U87-stb-CXCR4 xenografts, lungs; iv, 90 min, ex vivo, together with: AMD3465 25 mg/kg sc before tracer).
With `O=C(O[C@H](CO)C(F)(F)F)N1C[C@@H]2[C@H](C1)[C@H]2c1ccn(-c2cc(F)ccn2)n1` the IC50 was 0.0075 µM (Mgll (Mus musculus, UniProt O35678); enzyme activity, ABPP with FP-rhodamine; mouse brain lysate; 30 min preincubation, 37 °C).
With `Cc1ncc2c(n1)CN(C(=O)Nc1nc(-c3cccs3)ccc1N)C2` the IC50 was > 30 µM (HDAC5 (Homo sapiens, UniProt Q9UQL6); deacetylase activity, inhibitor, recombinant enzyme).
With `O=C(Nc1ccc(-c2noc(C3CC3)n2)c(Cl)c1)c1cccs1` the IC50 was < 10 µM (EGFR (Homo sapiens, UniProt P00533); kinase activity, inhibitor, luminescence; limit value).
For `O=C1C2=C(Nc3ccccc3SC2c2ccsc2)c2ccccc21` (racemic), the IC50 was > 5 µM (Cytochrome b (MT-CYB, Homo sapiens, UniProt P00156); enzyme activity, inhibitor).
The IC50 of `Cc1ccc(S[C@@H]2O[C@H](CO)[C@@H](O)[C@H](O)[C@H]2O)cc1` is reported as 35 µM (SLC5A1; transporter uptake, inhibitor, radiometric).
With `C[C@@H]1O[C@@H](OC[C@H]2O[C@@H](Oc3c(-c4ccc(O)c(O)c4)oc4cc(O)cc(O)c4c3=O)[C@H](O[C@@H]3O[C@@H](C)[C@H](O)[C@@H](O)[C@H]3O)[C@@H](O)[C@@H]2O)[C@H](O)[C@H](O)[C@H]1O` the IC50 was 71.3 µM (CHRNA7 (Homo sapiens, UniProt P36544); ion current, antagonist, two-electrode voltage clamp; oocytes).
The IC50 of `CC(C)CCN(Cc1cccnc1)c1nc(C#N)nc(N2CCOCC2)n1` is reported as 0.027 µM (CTSL; enzyme activity, inhibitor, fluorescence).
With `COc1cc2nccc(Oc3ccc(NC(=S)NC4CCOCC4)c(Cl)c3)c2cc1C(N)=O` the IC50 was 0.178 µM (PDGFRB).
With `COc1ccc(O[C@@H]2O[C@H](COS(=O)(=O)O)[C@H](OS(=O)(=O)O)[C@H](O[C@@H]3O[C@H](C(=O)O)[C@@H](O[C@@H]4O[C@H](COS(=O)(=O)O)[C@H](OS(=O)(=O)O)[C@H](O[C@@H]5O[C@H](C(=O)O)[C@@H](OS(=O)(=O)O)[C@H](OCc6ccccc6)[C@H]5O)[C@H]4NC(C)=O)[C@H](OCc4ccccc4)[C@H]3O)[C@H]2NC(C)=O)cc1` the IC50 was 27 µM (Midkine (Homo sapiens, UniProt P21741); heparin hexasaccharide binding, inhibitor, fluorescence polarisation competition; together with: fluorescein-labelled hexasaccharide probe).
For `O=C1C=C(CCc2ccc(OC3OC(CO)C(O)C(O)C3O)cc2)CCC1` (stereo not shown), the IC50 was > 100 µM (MAL12 (Saccharomyces cerevisiae S288c, UniProt P53341); enzyme activity, inhibitor, absorbance).
`O=C(O)/C=C/C(=O)NNC(=O)c1cc2c(cn1)[nH]c1ccccc12` has an IC50 of 54 µM (Egl nine homolog 1 (EGLN1, Homo sapiens, UniProt Q9GZT9); inhibitor, AlphaScreen; bimodal curve, rough estimate, together with: 2 µM 2-oxoglutarate).
